# Published values gathered from unrelated publications.
# Each numbered part is a random draw from the data of one study; scales do not carry over between parts. Several values in a cell are separate wells, animals, samples, runs or records.
# Chain of UniProt P10721 (whole entry, unmodified, looked up): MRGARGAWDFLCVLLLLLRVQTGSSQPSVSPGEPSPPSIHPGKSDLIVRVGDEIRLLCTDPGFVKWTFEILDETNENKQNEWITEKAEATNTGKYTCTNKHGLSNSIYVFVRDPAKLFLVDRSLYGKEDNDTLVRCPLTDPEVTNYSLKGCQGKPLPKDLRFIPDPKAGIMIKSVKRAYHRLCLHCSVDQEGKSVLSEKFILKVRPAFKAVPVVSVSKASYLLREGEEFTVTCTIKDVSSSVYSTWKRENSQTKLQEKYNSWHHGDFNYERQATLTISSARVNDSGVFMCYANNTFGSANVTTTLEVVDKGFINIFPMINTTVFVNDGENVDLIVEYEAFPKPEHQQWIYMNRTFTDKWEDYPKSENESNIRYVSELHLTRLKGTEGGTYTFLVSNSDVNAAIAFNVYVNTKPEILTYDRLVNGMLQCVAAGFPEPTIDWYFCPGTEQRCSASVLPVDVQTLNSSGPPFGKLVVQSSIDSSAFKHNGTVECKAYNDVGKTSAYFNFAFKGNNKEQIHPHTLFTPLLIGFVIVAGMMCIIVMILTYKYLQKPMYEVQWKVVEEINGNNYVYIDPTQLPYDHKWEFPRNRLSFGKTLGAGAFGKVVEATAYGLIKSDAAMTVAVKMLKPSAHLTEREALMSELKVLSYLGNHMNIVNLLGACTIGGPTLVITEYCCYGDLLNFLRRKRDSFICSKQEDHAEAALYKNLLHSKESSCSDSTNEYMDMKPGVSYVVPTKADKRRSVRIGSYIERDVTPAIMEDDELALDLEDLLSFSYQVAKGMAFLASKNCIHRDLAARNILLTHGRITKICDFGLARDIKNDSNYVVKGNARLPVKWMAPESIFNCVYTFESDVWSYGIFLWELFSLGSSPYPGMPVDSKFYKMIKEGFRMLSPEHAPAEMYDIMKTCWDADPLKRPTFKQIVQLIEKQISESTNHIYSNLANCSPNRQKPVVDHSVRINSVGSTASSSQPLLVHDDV
# Chain of UniProt Q13237 (whole entry, looked up): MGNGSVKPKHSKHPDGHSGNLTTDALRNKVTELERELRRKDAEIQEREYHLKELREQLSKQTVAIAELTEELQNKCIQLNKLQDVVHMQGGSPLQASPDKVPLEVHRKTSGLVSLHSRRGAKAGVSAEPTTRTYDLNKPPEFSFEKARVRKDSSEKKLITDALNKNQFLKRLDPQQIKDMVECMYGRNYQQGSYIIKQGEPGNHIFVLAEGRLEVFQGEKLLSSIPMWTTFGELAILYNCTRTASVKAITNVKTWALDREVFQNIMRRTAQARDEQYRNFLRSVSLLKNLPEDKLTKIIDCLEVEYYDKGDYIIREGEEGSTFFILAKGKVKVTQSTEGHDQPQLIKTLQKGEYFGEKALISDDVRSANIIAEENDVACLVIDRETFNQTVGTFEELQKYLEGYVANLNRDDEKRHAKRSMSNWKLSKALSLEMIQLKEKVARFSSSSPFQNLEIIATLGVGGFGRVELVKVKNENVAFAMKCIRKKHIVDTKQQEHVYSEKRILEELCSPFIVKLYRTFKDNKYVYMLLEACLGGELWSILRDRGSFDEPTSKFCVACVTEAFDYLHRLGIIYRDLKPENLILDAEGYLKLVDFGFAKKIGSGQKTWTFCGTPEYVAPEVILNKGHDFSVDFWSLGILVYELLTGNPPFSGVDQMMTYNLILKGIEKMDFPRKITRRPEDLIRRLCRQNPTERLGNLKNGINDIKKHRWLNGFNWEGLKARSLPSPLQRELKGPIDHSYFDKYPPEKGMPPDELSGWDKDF
# Chain of UniProt P54762 (whole entry, looked up): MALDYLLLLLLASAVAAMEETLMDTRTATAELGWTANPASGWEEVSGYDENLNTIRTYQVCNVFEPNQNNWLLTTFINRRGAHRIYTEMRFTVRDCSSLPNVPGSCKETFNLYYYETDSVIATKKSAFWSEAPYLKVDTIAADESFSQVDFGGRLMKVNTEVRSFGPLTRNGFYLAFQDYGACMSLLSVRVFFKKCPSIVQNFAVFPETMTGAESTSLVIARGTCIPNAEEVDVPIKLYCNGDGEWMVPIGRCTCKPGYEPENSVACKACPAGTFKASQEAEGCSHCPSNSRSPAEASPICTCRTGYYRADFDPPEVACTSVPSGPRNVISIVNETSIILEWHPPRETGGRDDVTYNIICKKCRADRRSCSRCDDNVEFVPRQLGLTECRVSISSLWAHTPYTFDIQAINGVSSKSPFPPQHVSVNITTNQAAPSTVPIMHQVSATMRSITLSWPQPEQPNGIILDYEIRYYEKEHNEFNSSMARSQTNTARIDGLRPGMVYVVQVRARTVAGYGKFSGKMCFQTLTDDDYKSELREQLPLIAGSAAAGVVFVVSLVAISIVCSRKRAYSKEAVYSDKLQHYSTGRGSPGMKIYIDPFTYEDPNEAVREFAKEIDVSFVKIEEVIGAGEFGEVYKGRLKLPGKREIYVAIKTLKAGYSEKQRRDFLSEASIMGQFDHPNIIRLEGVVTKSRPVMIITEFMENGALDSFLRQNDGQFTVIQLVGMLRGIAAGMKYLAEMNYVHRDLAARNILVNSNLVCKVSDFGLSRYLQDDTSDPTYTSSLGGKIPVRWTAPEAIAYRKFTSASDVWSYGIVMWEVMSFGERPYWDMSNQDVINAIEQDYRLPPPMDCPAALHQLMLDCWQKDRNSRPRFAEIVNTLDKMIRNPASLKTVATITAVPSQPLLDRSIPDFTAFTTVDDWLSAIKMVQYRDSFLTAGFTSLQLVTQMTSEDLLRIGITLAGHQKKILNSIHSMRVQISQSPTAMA
# Chain of UniProt Q9UQM7 (whole entry, looked up): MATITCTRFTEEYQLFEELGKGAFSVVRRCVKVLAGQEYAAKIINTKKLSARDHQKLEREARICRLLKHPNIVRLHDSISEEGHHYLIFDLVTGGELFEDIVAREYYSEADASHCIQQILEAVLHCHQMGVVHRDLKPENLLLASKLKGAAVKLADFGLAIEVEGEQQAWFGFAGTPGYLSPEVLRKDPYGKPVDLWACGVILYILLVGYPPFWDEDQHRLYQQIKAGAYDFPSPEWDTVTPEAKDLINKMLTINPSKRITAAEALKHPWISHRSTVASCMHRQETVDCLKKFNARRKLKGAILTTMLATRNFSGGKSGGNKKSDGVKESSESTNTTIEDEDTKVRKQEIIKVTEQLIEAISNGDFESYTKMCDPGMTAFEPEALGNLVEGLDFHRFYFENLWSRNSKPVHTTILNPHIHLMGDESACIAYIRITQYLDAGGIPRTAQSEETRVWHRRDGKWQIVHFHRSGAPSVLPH

# Study 1
# Host: mouse
# Matrix: microsomes or S9
# Tested at: 2 µM
# Time: 0.5 h
Compound,remaining compound
O=C(NC1Cc2ccccc2C1)NC1CCCn2ncnc21 (stereo not drawn),84.5%
Cc1nn(C)c2nc(NCC[C@@H]3CCCN4CCCC[C@H]34)sc12,23.4%
Fc1ccc(Cn2nnc3c2ncn2cnnc32)cc1,41.5%
COc1ccc(-c2cc(-c3nc4c5c(ncn4n3)CCC5)n[nH]2)cc1,24.3%
CNC(=O)Nc1ccc(C)n(CC(=O)NCCC(C)C)c1=O,52.1%
CCOC(OCC)c1cc2c(N)nc3ccccc3c2o1,0.0646%
N#Cc1cccc(-n2c3ccccc3c3ccncc32)c1,1.89%
Cn1c(=O)oc2cc(S(=O)(=O)N3CCC4(CC3)Nc3ccccc3-n3cccc34)ccc21,> 99.9%
CCC(Oc1cc(C)ccc1Cl)C(=O)Nc1cccnc1 (stereo not drawn),0.0424%
c1ccc(-c2ccc3ccnc(N4CCCCC4)c3c2)cc1,0.0867%
CC(=O)N1N=C(c2c(-c3ccccc3)c3ccccc3[nH]c2=O)CC1c1ccnc2ccccc12 (stereo not drawn),12.1%
CCC(=O)N1CCN(c2cc(-n3cnc(C)c3C)nc(C)n2)CC1,88.9%
CN1CCCc2c(c3cc(F)ccc3n2-c2ccc(F)cc2)C1,71.7%
O=c1cc(-c2ccccc2)oc2ccccc12,17.3%

# Study 2
# SMILES: Cc1nc(N2CC[C@@H](O)C2)ncc1-c1cc(C(F)(F)F)cc2[nH]ncc12
# Technique: competition with immobilised ligand
# Tested at: 1 µM
target,test,remaining binding [%]
"CAMK2A (Homo sapiens, UniProt Q9UQM7)",cell-free assay,100
"STK39 (Homo sapiens, UniProt Q9UEW8)",binding,99
"PRKG2 (Homo sapiens, UniProt Q13237)",binding,100
"EGFR (Homo sapiens, UniProt P00533, G719S)",cell-free assay,100
"Tyrosine-protein kinase ABL1, phosphorylated (ABL1, Homo sapiens, UniProt P00519, T315I)",binding,69
"KIT (Homo sapiens, UniProt P10721, D816V)",cell-free assay,100
"KIT (Homo sapiens, UniProt P10721, T670I/V559D)",cell-free assay,68
"EPHB1 (Homo sapiens, UniProt P54762)",cell-free assay,73

# Study 3
# Cell line: mouse MPNST tumor cells
# Technique: high-content immunofluorescence imaging
# Refers to: nuclear SOX9
# Tested at: 10 µM
# Time: 12 h
# Setting: mean of 2 replicates
# Relative to: DMSO control
# Reading: higher = more nuclear SOX9
Compound,nuclear SOX9 intensity
Cn1c(=O)c2nc[nH]c2n(C)c1=O,94.1 % of DMSO and 104 % of DMSO
Cc1cc(C(C)Nc2ccccc2)c2nc(N3CCOCC3)cc(=O)n2c1 (stereo not drawn),86.6 % of DMSO
Oc1c(CN2CCN(c3ccccn3)CC2)cc(Cl)c2cccnc12,227 % of DMSO
CCOC(=O)c1ccc(C#Cc2ccc3c(c2)C(C)(C)CCS3)nc1,137 % of DMSO
CCCCC(=O)N(Cc1ccc(-c2ccccc2-c2nnn[nH]2)cc1)[C@H](C(=O)O)C(C)C,87 % of DMSO and 96.7 % of DMSO
CC(C)[C@H](CO)Nc1nc(Nc2cc(N)cc(Cl)c2)c2ncn(C(C)C)c2n1,131 % of DMSO

# Study 4
# Target: Serine/threonine-protein kinase N1 (PKN1, Homo sapiens, UniProt Q16512)
# Chain of UniProt Q16512 (whole entry, looked up): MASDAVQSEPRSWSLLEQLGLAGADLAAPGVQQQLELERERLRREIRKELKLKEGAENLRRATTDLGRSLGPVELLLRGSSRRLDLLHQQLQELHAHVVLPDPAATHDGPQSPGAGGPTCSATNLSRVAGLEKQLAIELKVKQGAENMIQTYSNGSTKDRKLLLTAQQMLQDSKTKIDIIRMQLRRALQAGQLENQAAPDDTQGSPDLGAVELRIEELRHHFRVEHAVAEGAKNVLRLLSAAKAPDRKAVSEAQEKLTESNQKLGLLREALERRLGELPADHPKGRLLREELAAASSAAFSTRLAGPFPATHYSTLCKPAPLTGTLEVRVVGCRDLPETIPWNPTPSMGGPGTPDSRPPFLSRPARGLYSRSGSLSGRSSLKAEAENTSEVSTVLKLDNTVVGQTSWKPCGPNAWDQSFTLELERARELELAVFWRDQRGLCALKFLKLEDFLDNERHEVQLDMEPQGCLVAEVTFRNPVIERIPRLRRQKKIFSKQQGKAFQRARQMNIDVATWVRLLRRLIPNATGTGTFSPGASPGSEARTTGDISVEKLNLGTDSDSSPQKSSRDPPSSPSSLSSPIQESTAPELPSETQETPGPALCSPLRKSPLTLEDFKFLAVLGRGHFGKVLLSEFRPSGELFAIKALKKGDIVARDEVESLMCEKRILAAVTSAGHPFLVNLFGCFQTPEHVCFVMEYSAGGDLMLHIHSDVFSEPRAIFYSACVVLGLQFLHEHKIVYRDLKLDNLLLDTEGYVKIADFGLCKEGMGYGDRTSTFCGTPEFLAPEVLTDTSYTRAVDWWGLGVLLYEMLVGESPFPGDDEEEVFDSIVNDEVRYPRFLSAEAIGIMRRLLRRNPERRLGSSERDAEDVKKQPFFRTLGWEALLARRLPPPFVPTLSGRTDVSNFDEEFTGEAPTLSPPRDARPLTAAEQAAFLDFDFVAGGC
# Observed: enzyme activity
# Action: inhibitor
# Tested at: 0.5 µM
# Relative to: control
Structure (SMILES),remaining activity [%]
O=c1c(-c2ccc(F)cc2)c(-c2ccncc2)[nH]n1-c1ccc(Cl)cc1,92.4
O=C(O)/C=C/c1cc(Br)c(Br)c(Br)c1Br,85.5
CC(C)(C)c1nc2c3cc[nH]c(=O)c3c3cc(F)ccc3c2[nH]1,28.3
CC(C)N(CCC(=O)c1ccc2ccccc2c1)Cc1ccccc1,107
Clc1ccc(Nc2nnc(Cc3ccncc3)c3ccccc23)cc1,95.9
O=C1NC(=O)/C(=C/c2ccc3c(c2)OC(F)(F)O3)S1,98.5
Nc1nc(Nc2ccc(S(N)(=O)=O)cc2)nn1C(=S)Nc1c(F)cccc1F,9.7
O=C(c1ccccc1)c1ccc(N2CCOCC2)cc1O,104
C[C@@H](N)[C@H]1CC[C@H](C(=O)Nc2ccncc2)CC1,41.7
c1cc(-c2cnn3cc(-c4ccc(OCCN5CCCCC5)cc4)cnc23)ccn1,44.6
CCN(CC)CCCCN1c2ccccc2Oc2ccc(Cl)cc21,89.6
CC(C)n1cnc2c(Nc3cccc(Cl)c3)nc(NCCO)nc21,101
O=C1c2ccccc2-c2nc3nnnn3nc21,97.5
NC(=O)c1cccc(-c2cc(Nc3ccc(OC(F)(F)F)cc3)ncn2)c1,98.9
CNc1cc2c(Nc3cccc(Br)c3)ncnc2cn1,102
CCCCc1c(-c2ccc(O)cc2)[nH]c2nccnc12,90.3
FC(F)(F)c1ccc(/C=C/c2nc(COc3ccc(CCCCn4ccnn4)cc3)co2)cc1,97
NC(=O)c1ccc(-c2nc(-c3ccc4c(c3)OCCO4)c(-c3ccccn3)[nH]2)cc1,98.8
N#C/C(=C(/N)SC1C=CC=CC1)c1cccc(C(O)c2ccncc2)c1 (stereo not drawn),106
COc1cc2c(N3CCN(C(=O)Nc4ccc(OC(C)C)cc4)CC3)ncnc2cc1OCCCN1CCCCC1,108

# Repeated from above (study 2):
target,test,remaining binding [%]
"Tyrosine-protein kinase ABL1, phosphorylated (ABL1, Homo sapiens, UniProt P00519, T315I)",binding,69
"KIT (Homo sapiens, UniProt P10721, T670I/V559D)",cell-free assay,68
"CAMK2A (Homo sapiens, UniProt Q9UQM7)",cell-free assay,100
"EGFR (Homo sapiens, UniProt P00533, G719S)",cell-free assay,100
"KIT (Homo sapiens, UniProt P10721, D816V)",cell-free assay,100
"EPHB1 (Homo sapiens, UniProt P54762)",cell-free assay,73
"STK39 (Homo sapiens, UniProt Q9UEW8)",binding,99
